Published values collected from several papers.
Protocols differ between the studies behind these lines. ± marks the error that the study gave.
Cell line: Vero E6

CCC[C@H](NC(=O)[C@@H]1[C@H]2CCC[C@H]2CN1C(=O)[C@@H](NC(=O)[C@@H](NC(=O)c1cnccn1)C1CCCCC1)C(C)(C)C)C(=O)C(=O)NC1CC1 — CC50 (cell viability, MTT; 48 (unit not given)): > 50 µM
CN(C)CCn1c(C(=O)N2CCN(c3ccccc3Cl)CC2)c(C(c2ccc(O)cc2)c2ccc(O)cc2)c2ccccc21 — CC50 (cell number; 40 (unit not given)): > 2.5 µM
CNC(=O)c1ccc(-c2cnc3ncc(Cc4ccc5ncccc5c4)n3n2)cc1F — CC50 (3 (unit not given)): 38.1 µM
CCCC[C@H](NC(=O)[C@@H]1[C@@H]2[C@H](CN1C(=O)[C@@H](NC(=O)NC1(CS(=O)(=O)C(C)(C)C)CCCCC1)C(C)(C)C)C2(C)C)C(=O)C(=O)NC1CC1 — CC50 (cell viability, MTT; 48 (unit not given)): > 20 µM
Nc1nc2nc[nH]c2c(=S)[nH]1 — CC50 (XTT; 48 h): 331 ± 21.3 µM
C/C=C(/C)C(=O)OC(C)(C)[C@@H]1Cc2c(ccc3ccc(=O)oc23)O1 — CC50 (3 (unit not given)): 88.7 µM
COc1cc2c(cc1N1C[C@@H](C)N[C@@H](C)C1)N(C(=O)c1ccc(-c3ccc(-c4noc(C)n4)cc3C)cc1)CC2 — CC50 (cell number; 40 (unit not given)): > 2.5 µM
CC[C@@H]1C[C@]1(NC(=O)[C@@H]1C[C@@H]2CN1C(=O)[C@H](C(C)(C)C)NC(=O)OCC(C)(C)CCCCc1cccc3c1CN(C3)C(=O)O2)C(=O)NS(=O)(=O)C1CC1 — CC50 (cell viability, MTT; 48 (unit not given)): 4.3 µM
Nc1ccc(O)c(=O)cc1 — CC50 (XTT; 48 h): 186 ± 16.6 µM
C[C@@H]1CS/C(=N\NC(=O)C(=O)[C@H](NC(=O)C2CCCCCC2)C2CCOCC2)N1C — CC50 (cell number; 40 (unit not given)): > 2.5 µM

A few entries again:
CC[C@@H]1C[C@]1(NC(=O)[C@@H]1C[C@@H]2CN1C(=O)[C@H](C(C)(C)C)NC(=O)OCC(C)(C)CCCCc1cccc3c1CN(C3)C(=O)O2)C(=O)NS(=O)(=O)C1CC1 — CC50 (cell viability, MTT; 48 (unit not given)): 4.3 µM
